Assay results gathered from unrelated publications.
A part holds a random share of what one study measured.

Study 1
Target: Sal-like protein 4, full length isoform A (SALL4, Homo sapiens, UniProt Q9UJQ4, residues 1-1053)
Chain of UniProt Q9UJQ4 (whole entry, looked up): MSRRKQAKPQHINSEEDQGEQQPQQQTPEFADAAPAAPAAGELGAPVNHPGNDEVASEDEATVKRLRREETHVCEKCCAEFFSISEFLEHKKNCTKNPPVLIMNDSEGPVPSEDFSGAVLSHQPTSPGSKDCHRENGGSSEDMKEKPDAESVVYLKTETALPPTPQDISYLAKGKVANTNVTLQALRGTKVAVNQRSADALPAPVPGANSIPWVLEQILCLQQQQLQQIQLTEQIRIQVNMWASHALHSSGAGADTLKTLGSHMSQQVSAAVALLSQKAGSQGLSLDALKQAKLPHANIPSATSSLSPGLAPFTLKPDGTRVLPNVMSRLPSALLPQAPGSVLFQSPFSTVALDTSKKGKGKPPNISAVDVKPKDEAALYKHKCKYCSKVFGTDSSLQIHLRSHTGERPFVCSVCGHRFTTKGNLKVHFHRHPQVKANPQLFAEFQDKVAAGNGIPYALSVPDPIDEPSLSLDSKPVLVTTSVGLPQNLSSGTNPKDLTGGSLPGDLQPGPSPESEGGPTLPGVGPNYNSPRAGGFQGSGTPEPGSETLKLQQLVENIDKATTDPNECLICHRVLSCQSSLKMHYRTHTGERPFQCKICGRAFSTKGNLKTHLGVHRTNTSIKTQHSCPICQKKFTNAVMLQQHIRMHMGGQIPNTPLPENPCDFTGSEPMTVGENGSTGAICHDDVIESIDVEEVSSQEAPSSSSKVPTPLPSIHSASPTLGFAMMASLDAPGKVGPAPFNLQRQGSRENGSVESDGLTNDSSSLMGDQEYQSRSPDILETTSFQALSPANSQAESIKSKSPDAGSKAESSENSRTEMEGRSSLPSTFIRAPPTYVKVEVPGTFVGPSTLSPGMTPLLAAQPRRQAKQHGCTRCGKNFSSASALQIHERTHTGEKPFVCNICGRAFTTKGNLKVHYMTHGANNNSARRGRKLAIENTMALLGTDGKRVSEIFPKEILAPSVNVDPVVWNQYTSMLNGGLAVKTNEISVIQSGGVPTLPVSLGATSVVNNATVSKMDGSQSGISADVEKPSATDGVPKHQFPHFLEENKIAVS
Technique: universal PBM
Form: double-stranded DNA, one strand shown
Matrix: in vitro
Tested at: 600 nM
Notes: 8-mer, flanks averaged, mean of replicates
Direction: higher = stronger binding
The E-score of `TGAGTAAA` is reported as 0.0532.
With `CGCCCATA` the E-score was -0.13.
The E-score of `CTTGTTCC` is reported as 0.0483.
`GCAGGCAC` has an E-score of -0.276.
For `TCAAAGCA`, the E-score was 0.152.
For `ACCACTGG`, the E-score was -0.0737.
For `TCGTACAA`, the E-score was 0.24.
`CGTTACTA` has an E-score of 0.156.

Study 2
Target: Histone acetyltransferase KAT6A, both winged helices, GST fusion (KAT6A, Homo sapiens, UniProt Q92794, residues 1-181)
Technique: protein binding microarray
Form: double-stranded DNA, one strand shown
Matrix: in vitro
Tested at: not given
Notes: 8-mer, flanks averaged, mean of 2 arrays, mostly near background
Baseline: not given
Direction: higher = stronger binding
Target sequence (chain): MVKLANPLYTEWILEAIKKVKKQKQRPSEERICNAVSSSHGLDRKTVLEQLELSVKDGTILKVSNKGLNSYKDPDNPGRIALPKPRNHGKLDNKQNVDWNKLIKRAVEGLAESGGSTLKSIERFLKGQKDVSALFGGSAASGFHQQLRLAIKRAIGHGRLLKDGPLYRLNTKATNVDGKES
With `AGGAAGCC` the E-score was -0.0834.
For `AGTCGTGG`, the E-score was -0.206.
`AGACGTAT` gave an E-score of 0.0183.
`TCTGACCA` has an E-score of -0.0585.
For `AAATACCC`, the E-score was 0.0228.
`ACGAACGG` gave an E-score of 0.254.
`AGTTAGTG` gave an E-score of -0.238.
`CCTTACTC` gave an E-score of -0.0633.

Study 3
Target: Phosphate system positive regulatory protein PHO4, full length, GST-tagged (PHO4, Saccharomyces cerevisiae, UniProt P07270, residues 1-312)
Technique: competition protein-binding microarray
Form: double-stranded DNA, one strand shown
Matrix: in vitro
Tested at: 2 µM
Notes: whole 60-bp probe, lowest competitor level
Together with: Cbf1 competitor, 0.05 µM
Direction: higher = stronger binding
Constant ends, left off below: … GTCTTGATTCGCTTGACGCTGCTG
Target sequence (chain): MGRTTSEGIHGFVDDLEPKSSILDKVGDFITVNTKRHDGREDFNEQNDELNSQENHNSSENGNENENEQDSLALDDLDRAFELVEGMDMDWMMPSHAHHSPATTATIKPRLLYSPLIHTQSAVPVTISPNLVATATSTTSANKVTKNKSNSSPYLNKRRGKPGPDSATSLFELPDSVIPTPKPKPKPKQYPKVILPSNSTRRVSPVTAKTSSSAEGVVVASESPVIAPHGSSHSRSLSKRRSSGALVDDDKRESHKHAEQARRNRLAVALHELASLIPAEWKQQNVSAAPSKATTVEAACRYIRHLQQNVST
For `GAGGTTCGGTTTTGTCATGTGTGCTTTTATACGGCA`, the fluorescence intensity was 7980 a.u.
`CCGAAAAGGGCCCATCACGGCACATCTGAAGAAAAG` has a fluorescence intensity of 3730 a.u.
The fluorescence intensity of `AAAGCGGTAATTTGGGATGTGGGTGCAGATATCTAT` is reported as 5230 a.u.
For `TTATCCACTACCTGTCATGATGGTCCATTTGGTGCT`, the fluorescence intensity was 4330 a.u.
For `ATACATTTCTCAGGACACGTACTGAGAATATTGTTG`, the fluorescence intensity was 7780 a.u.
With `GGGTTGGACAGGTTCAGCGTGATGGTAAGCAGCACT` the fluorescence intensity was 5600 a.u.
For `CGGGGTTAAGTTTGTCACCCAACTTGCTTGCAGCAG`, the fluorescence intensity was 3120 a.u.

Mixed results
`PhoQ, residues 284 288 289 292 302 303 AMDMFI` gave a fold induction of 0.755 (PhoP, residues 12 14 15 18 19 LWHSL (Escherichia coli, UniProt P23836); Sort-seq, refers to: YFP reporter; E. coli; PhoQ-PhoP variant library, together with: 10 µM Mg2+; baseline: high Mg2+ state, higher = stronger signaling).

Repeated from above (study 1):
`GCAGGCAC` has an E-score of -0.276.
For `TCAAAGCA`, the E-score was 0.152.
`CGTTACTA` has an E-score of 0.156.
